Experimental data collected from several papers.
Parts stem from different laboratories: compare values within a part only. Positions count from the first letter of the parent shown.

Series 1 — Substance: HNRNPA1 (Homo sapiens, UniProt P09651); technique: cross-linking MS; setting: hits only; measurement: interaction screen
FUBP3 (Homo sapiens, UniProt Q96I24): cross-linked
NONO (Homo sapiens, UniProt Q15233): cross-linked
PTBP1 (Homo sapiens, UniProt P26599): cross-linked
HNRNPA3 (Homo sapiens, UniProt P51991): cross-linked
MATR3 (Homo sapiens, UniProt P43243): cross-linked
HNRNPD (Homo sapiens, UniProt Q14103): cross-linked
SFPQ (Homo sapiens, UniProt P23246): cross-linked
HNRNPH1 (Homo sapiens, UniProt P31943): cross-linked

Series 2 — technique: DHFR PCA, deep sequencing; matrix: yeast; with: (+)-ABA 0.032 µM; baseline: wild-type fitted maximum; direction: higher = stronger binding; measurement: relative binding score
Target: ABI1, truncated, D143A, DHFR fusion (Arabidopsis thaliana)
Setting: methotrexate growth selection, single substitutions
Starting sequence: PYL1, truncated, DHFR fusion (Arabidopsis thaliana); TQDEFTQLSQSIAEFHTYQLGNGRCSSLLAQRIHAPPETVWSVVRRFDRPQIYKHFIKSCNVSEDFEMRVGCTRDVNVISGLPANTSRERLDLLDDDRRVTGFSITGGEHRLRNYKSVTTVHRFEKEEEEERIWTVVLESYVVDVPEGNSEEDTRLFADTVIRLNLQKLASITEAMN; partner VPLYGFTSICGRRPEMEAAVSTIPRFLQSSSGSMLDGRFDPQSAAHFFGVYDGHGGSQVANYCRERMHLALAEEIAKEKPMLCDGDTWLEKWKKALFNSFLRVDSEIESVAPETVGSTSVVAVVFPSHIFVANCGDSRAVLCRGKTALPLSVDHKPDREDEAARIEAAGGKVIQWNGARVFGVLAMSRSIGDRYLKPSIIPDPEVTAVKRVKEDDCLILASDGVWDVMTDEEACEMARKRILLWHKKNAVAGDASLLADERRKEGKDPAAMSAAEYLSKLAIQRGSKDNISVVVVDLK
Y18Q: -2.07%
I52C: 3.9%
E151I: 30.6%
V76D: 2.03%
G107S: 32.2%
P50E: -10.2%
L8M: 6.61%
N114F: -0.889%
S104I: 9.75%
A175T: 12.3%
L91K: 7.91%
S80Q: 2.58%
V78H: 51.9%
R45L: -1.12%
E109N: 42.2%
V161C: 47.1%
M68E: -0.178%

Series 3 — target: CREBL2, bZIP domain (human); technique: DHFR protein complementation; matrix: yeast; baseline: wild-type JUN-FOS pair; direction: higher = stronger binding; measurement: binding fitness
Setting: single substitutions, most at no-binding floor
Starting sequence: JUN, bZIP domain (human); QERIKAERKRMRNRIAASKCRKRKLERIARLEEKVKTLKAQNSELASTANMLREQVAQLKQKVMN; partner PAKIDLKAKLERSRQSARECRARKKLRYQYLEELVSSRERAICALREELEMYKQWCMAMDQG
Q41L: -1.53 natural log
L45P: -1.54 natural log
I28S: -1.19 natural log
L52E: -1.57 natural log
V56A: -1.5 natural log
K34Q: -1.45 natural log
L52S: -1.58 natural log
A57P: -1.52 natural log
L59R: -1.48 natural log
A57H: -1.24 natural log
K34A: -1.19 natural log
S47G: -1.45 natural log
E32N: -1.53 natural log
E54T: -1.11 natural log
E44N: -1.54 natural log
A46H: -1.43 natural log
S47T: -1.43 natural log
S47H: -1.45 natural log
L52G: -1.53 natural log
A57E: -1.5 natural log
K39N: -1.52 natural log

Series 4 — technique: universal PBM; molecule type: double-stranded DNA, one strand shown; matrix: in vitro; concentration: 600 nM; direction: higher = stronger binding; measurement: E-score
Target: Sal-like protein 4, full length isoform A (SALL4, Homo sapiens, UniProt Q9UJQ4, residues 1-1053)
Chain of UniProt Q9UJQ4 (whole entry, looked up): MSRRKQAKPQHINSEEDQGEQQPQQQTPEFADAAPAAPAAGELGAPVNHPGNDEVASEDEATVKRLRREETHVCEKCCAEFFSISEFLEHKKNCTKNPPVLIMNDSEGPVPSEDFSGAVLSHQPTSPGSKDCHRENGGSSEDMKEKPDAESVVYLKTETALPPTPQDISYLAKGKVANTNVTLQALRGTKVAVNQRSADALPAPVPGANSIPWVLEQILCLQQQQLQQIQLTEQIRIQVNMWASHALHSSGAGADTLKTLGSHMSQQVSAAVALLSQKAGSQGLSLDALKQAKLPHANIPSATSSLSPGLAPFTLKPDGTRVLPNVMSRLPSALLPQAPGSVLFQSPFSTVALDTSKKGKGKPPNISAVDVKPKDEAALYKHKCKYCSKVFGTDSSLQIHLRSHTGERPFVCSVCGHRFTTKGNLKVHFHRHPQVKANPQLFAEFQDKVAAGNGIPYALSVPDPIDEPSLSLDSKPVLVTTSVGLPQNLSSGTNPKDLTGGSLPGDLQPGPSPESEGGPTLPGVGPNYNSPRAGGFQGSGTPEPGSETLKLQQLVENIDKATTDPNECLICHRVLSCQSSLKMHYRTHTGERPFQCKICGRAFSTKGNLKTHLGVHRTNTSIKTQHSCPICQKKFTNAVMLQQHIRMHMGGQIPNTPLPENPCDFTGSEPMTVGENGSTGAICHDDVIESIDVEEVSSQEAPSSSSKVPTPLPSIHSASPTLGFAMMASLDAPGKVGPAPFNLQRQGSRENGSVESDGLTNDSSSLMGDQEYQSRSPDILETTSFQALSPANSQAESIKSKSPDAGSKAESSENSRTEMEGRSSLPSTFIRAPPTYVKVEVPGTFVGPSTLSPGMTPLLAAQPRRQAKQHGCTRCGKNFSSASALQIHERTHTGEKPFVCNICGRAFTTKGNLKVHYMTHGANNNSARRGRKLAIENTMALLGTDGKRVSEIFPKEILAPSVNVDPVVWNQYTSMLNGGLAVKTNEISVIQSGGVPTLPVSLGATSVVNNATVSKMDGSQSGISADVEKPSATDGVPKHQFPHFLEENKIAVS
Setting: 8-mer, flanks averaged, mean of replicates
CTTATTTC: 0.293
AGTCACAT: 0.15
ATCATAGG: 0.152
CCGACACC: -0.307
CAGACCTG: -0.231
GTCCGACA: -0.155
CCTTTTTA: 0.136
AAATGTCT: 0.205
TCATACAA: 0.267
CAACTAGG: 0.0292
CTCGTAGC: -0.0506
TATTTTAA: 0.379
AGCCCTGG: -0.295
TCTAATAA: 0.358
GCGAGTAC: -0.0147
CCCGCAGA: -0.164
CGAGCTCG: -0.245
AGCACTAG: -0.0695

Series 5 — technique: protein binding microarray; molecule type: double-stranded DNA, one strand shown; matrix: in vitro; concentration: not given; baseline: not given; direction: higher = stronger binding; measurement: E-score
Target: Histone acetyltransferase KAT6A, winged helix 2, GST fusion (KAT6A, Homo sapiens, UniProt Q92794, residues 85-181)
Setting: 8-mer, flanks averaged, mean of 2 arrays, mostly near background
Target sequence (chain): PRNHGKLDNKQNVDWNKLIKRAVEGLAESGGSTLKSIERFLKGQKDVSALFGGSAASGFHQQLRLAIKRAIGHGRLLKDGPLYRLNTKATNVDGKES
ATTGATCG: 0.105
AGGACTGC: -0.0796
GCGGAAAA: 0.0177
ATATCACA: -0.143
AGACGATG: -0.103
CCCCACGG: 0.131
CGCTCTGC: 0.123
AGCTTTCG: -0.0314
ACGCGTGG: 0.0143
CTCTAGAG: -0.212
TCTCGAGA: -0.0591
GATGTTGC: 0.00281
CGCTCCAA: -0.00107
CATCTGGC: 0.205
CAGTCATC: -0.21
CAGTTAGA: 0.129
CCTGCCGC: 0.13
GAAGGGCC: 0.114
AATGACAG: 0.00374
AACGCTAC: -0.194
GGAACTAA: -0.00346
CTAAGTAC: -0.0771
CACTACTA: -0.0147
ATCATGCA: -0.169
AGGTTTTC: -0.0127

Series 6 — technique: DNA-protein interaction ELISA; molecule type: double-stranded DNA, one strand shown; matrix: in vitro, bacterial lysate; concentration: not given; setting: whole dsDNA probe, crude lysate protein; baseline: highest signal in screen; direction: higher = stronger binding; measurement: relative absorbance
Target: Probable WRKY transcription factor 50, DNA-binding domain (WRKY50, Arabidopsis thaliana, UniProt Q8VWQ5, residues 99-173)
Construct (chain): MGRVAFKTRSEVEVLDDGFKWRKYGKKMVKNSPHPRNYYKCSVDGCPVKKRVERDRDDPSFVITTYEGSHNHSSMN
AAAAAACCCTACATCGCATATAAGAGAAAA: 8.22 % of maximum
AAAAAATCAGTCTGAGACTTACAACTAAAA: 22.1 % of maximum
AAAAAAGTATAACGTGTTGTTGACCGAAAA: 55 % of maximum
AAAAAAGGAAGTACTGACGATCTGGAAAAA: 34.9 % of maximum
AAAAAAACGCTATATATTGGTGCTAGAAAA: 24.7 % of maximum
AAAAAAGCCATCATGGTTAGTGTACAAAAA: 35.7 % of maximum
AAAAAAGTCGTTACACGTATGCGTGCAAAA: 65.8 % of maximum
AAAAAACGGAAGATCGTGACTGCTAGAAAA: 18.7 % of maximum
AAAAAATATGGCACTCGCCGCACATCAAAA: 24.1 % of maximum
AAAAAAAATTAGTCTCTTCGTCTCCCAAAA: 25 % of maximum
AAAAAACATTCCTAGTTCATGTTACTAAAA: 29.8 % of maximum
AAAAAAATCCATATTATTGCTACCCGAAAA: 21.6 % of maximum
AAAAAAACGGGTTGTGAATGTGGAAGAAAA: 42.2 % of maximum
AAAAAACCCGGTTGGAGAAAATAATTAAAA: 23.8 % of maximum
AAAAAATCCTGTTTGCGTTTGATTTTAAAA: 30.9 % of maximum
AAAAAAAACTGTCGCCCCCGGCTGGCAAAA: 17.7 % of maximum
AAAAAAGATCTAGGCCTTGGGACTCAAAAA: 23.5 % of maximum
AAAAAAATCTCACTCCTGGTCCCCATAAAA: 10.7 % of maximum
AAAAAATTACTTCTCCCTTCCTTTGCAAAA: 40.9 % of maximum
AAAAAATTCGGGACTAGTAGTGGTGAAAAA: 16.6 % of maximum
AAAAAAGTCTCACCTTTAGTCTTAATAAAA: 35 % of maximum
AAAAAACTCGTACATCTATCGCTACGAAAA: 11.8 % of maximum
AAAAAATATTCCGCTTTTGGCTGAATAAAA: 31.7 % of maximum
AAAAAAGGTAATGCCGGTCCCAGTATAAAA: 28.3 % of maximum
AAAAAATCTTACCCCTCCGCTTCTATAAAA: 49 % of maximum

Series 7 — target: CCND2, cyclin fold, Cln2 fusion (human); technique: yeast growth competition, sequencing; matrix: yeast; setting: weak parent motif; baseline: not given; direction: higher = stronger binding; measurement: normalised enrichment score
Starting sequence: RB1 docking peptide (human); PKPLKKLRFDIEG; partner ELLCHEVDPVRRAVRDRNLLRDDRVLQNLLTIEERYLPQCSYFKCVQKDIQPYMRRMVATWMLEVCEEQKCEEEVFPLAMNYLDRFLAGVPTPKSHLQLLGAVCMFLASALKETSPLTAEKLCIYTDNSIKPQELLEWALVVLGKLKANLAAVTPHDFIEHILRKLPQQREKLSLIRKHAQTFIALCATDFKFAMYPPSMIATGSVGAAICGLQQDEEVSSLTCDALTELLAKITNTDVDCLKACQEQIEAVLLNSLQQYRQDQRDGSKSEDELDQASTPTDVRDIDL
R8I: 0.144
K6T: 0.133
L4P: 0.114
R8Y: 0.136
K5L: -0.0382
K2R: 0.639
E12H: -0.00277
R8S: 0.122
L7C: 0.474
F9A: 0.566
E12V: -0.329
K2L: 0.477
P3E: 0.501
P1G: 0.18
P3S: 0.621
I11W: 0.35
K2N: 0.264
K5I: 0.193
D10S: -0.672
I11Q: -0.0916
F9Y: -0.111
D10Y: 0.507
K2G: 0.00796

Further values, each from its own experiment
PhoQ, residues 284 288 289 292 302 303 TYGVAM — fold induction (PhoP, residues 12 14 15 18 19 NQCAL (Escherichia coli, UniProt P23836); Sort-seq, item: YFP reporter; E. coli; PhoQ-PhoP variant library, with: 10 µM Mg2+; baseline: high Mg2+ state, higher = stronger signaling): 20.3

Repeated from above (series 3):
E32N: -1.53 natural log
S47H: -1.45 natural log
V56A: -1.5 natural log
A46H: -1.43 natural log
E54T: -1.11 natural log
L52S: -1.58 natural log
A57H: -1.24 natural log
S47T: -1.43 natural log
A57E: -1.5 natural log
